Experimental data gathered from unrelated publications.
Parts stem from different laboratories: compare values within a part only. Changes are numbered by the printed parent chain.

Sample 1
Target: CCND2, cyclin fold, Cln2 fusion (human)
Method: yeast growth competition, sequencing
Sample: yeast
Setting: weak parent motif
Baseline: not given
Direction: higher = stronger binding
Starting sequence: ITGB3BP docking peptide (human); MPVKRSLKLDGLL; partner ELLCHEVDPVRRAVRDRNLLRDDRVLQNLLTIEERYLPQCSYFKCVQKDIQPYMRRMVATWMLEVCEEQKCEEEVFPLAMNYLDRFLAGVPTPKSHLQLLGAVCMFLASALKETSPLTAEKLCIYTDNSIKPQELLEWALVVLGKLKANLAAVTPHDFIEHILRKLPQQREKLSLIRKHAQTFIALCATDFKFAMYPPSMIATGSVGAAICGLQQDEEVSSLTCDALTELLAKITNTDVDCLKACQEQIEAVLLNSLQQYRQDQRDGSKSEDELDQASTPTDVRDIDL
For `L13A`, “normalised enrichment score” read 0.143.
Under “normalised enrichment score”, `M1A` is recorded as -0.245.
`R5A` — result for “normalised enrichment score”: -0.167.
Under “normalised enrichment score”, `S6A` is recorded as 0.308.
For `R5K L9F`, “normalised enrichment score” read -0.0795.
`K8A`: “normalised enrichment score” 0.272.
Under “normalised enrichment score”, `L7A` is recorded as 0.505.
`L9F`: “normalised enrichment score” -0.192.
`L12A` — result for “normalised enrichment score”: 0.117.
For `R5A L7A`, “normalised enrichment score” read 0.0275.

Sample 2
Target: Fragile X messenger ribonucleoprotein 1, C-terminal low-complexity region (Fmr1, Mus musculus, UniProt P35922)
Method: RNA Bind-n-Seq
Molecule type: RNA
Sample: in vitro
Tested at: 200 nM
Setting: whole 134-nt RNA, ends assumed
With: 150 mM KCl
Baseline: input library
Direction: higher = stronger binding
The log2 enrichment of `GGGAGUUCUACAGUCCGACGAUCUGGCCCUGGUGGCAUGCGGGGAGGAAGAGGUGGCCUCAUGGGUCGUGGUGGUCCCGGUGGAAUGUUCAGAGGUGGCCGUGGUGGAGACAGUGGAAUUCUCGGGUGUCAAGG` is reported as -1.61e-05.
With `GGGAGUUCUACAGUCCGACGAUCUCACCUGUUUACAGUGAAUCAGACGUCCCAAUAGAUGUGGAGACGGUCACAUCAACGCCUAUGCCACUCUAUGACAAUCAGAAGGCACGCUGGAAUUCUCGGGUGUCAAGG` the log2 enrichment was -1.27.
The log2 enrichment of `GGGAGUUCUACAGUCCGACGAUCCAAGUCCUGUGCUACACAUCGUAUGUACCGAAUCGGGGCCCGGGCCCGGGGCCCGGAAAGUAUUAUGUUACGCCGUUCGGAUCUGCACUUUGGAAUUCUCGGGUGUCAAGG` is reported as -0.759.
With `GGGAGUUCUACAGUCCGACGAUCUGGAAUAAGCCUGGUGCUUUCUGGCUAUGUUUGUCAUAGGCUGACCUGGAUAUCACCGAAAUAAACAAACUAACAGCAGAAGCUAUUCAGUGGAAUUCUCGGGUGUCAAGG` the log2 enrichment was -0.429.
For `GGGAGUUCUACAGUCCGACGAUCAGUCCUGUGCUACACAUCGUAUGUACCGAAUCGGGUUUUUUUGGGAAAAAGGGUGGGAAAGUAUUAUGUUACGCCGUUCGGAUCUGCACUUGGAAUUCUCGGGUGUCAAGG`, the log2 enrichment was 0.628.
With `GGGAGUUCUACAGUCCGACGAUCAGUCCUGUGCUACACAUCGUAUGUACCGAAUCGGUUUUUUUGGAAAGGAAAAAAAGGAAAGUAUUAUGUUACGCCGUUCGGAUCUGCACUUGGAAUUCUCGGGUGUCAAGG` the log2 enrichment was -1.09.
For `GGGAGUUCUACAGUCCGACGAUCUGGGAGGUGGAUUUCGUUUAUUUUUUUAGCUCAUUUCCAGGGGUGGGAAUUUUUUUUUAAUAUGUGUCAUGAAUAAAGUUGUUUUUGAAAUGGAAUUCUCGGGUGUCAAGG`, the log2 enrichment was 0.0151.
`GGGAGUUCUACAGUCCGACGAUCAGUCCUGUGCUACACAUCGUAUGUACCGAAUCGGGCCCCGGGGCCCCGGGCCCCGGGAAAGUAUUAUGUUACGCCGUUCGGAUCUGCACUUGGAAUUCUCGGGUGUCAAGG` gave a log2 enrichment of -0.762.
The log2 enrichment of `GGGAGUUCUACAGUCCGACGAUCAGUCCUGUGCUACACAUCGUAUGUACCGAAUCGGGUUUUUGGGUGGGUUUUUUUGGGAAAGUAUUAUGUUACGCCGUUCGGAUCUGCACUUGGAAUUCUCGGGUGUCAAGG` is reported as 0.848.

Sample 3
Target: MAFF, bZIP domain (human)
Method: DHFR protein complementation
Sample: yeast
Setting: single substitutions, most at no-binding floor
Baseline: wild-type JUN-FOS pair
Direction: higher = stronger binding
Starting sequence: JUN, bZIP domain (human); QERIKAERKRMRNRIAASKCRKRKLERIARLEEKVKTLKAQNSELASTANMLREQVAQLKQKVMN; partner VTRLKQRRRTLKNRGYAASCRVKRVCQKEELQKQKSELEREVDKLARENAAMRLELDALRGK
`A29G` gave a binding fitness of -1.44 natural log.
With `L45D` the binding fitness was -1.52 natural log.
The binding fitness of `Q55E` is reported as -1.44 natural log.
With `Q41S` the binding fitness was -1.52 natural log.
`L52S` gave a binding fitness of -1.34 natural log.
For `S43R`, the binding fitness was -1.46 natural log.
For `I28G`, the binding fitness was -1.44 natural log.
With `A49T` the binding fitness was -1.43 natural log.
For `L45E`, the binding fitness was -1.55 natural log.
`N42T` gave a binding fitness of -1.45 natural log.
`R30N` gave a binding fitness of -1.33 natural log.
For `E32K`, the binding fitness was -1.46 natural log.
`S43L` gave a binding fitness of -1.4 natural log.
For `K39R`, the binding fitness was -1.35 natural log.
With `L45F` the binding fitness was -1.56 natural log.
The binding fitness of `A29I` is reported as -1.29 natural log.
`S47F` gave a binding fitness of -1.38 natural log.
`E32F` has a binding fitness of -1.53 natural log.
For `E33D`, the binding fitness was -1.48 natural log.
The binding fitness of `V56K` is reported as -1.31 natural log.
With `E44F` the binding fitness was -1.54 natural log.
`L52G` gave a binding fitness of -1.56 natural log.
`E32C` gave a binding fitness of -1.39 natural log.

Sample 4
Target: UBE2V2 UBC core domain (UniProt Q15819)
Chain of UniProt Q15819 (whole entry, looked up): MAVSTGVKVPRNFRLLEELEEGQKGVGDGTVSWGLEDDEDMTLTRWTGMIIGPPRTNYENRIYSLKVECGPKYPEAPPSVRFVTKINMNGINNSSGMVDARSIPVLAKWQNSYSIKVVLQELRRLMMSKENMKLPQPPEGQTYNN
Method: yeast two-hybrid
Sample: yeast
Setting: mostly zero background
Baseline: not given
Direction: higher = stronger interaction
B1: TRIM32 RING domain (UniProt Q13049); chain NLDALREVLECPICMESFTEEQLRPKLLHCGHTICRQCLEKLLASSINGVRCPFCSKITRITSLTQ
B2: ARIH1 RING domain (UniProt Q9Y4X5); chain NTRSSAQDMPCQICYLNYPNSYFTGLECGHKFCMQCWSEYLTTKIMEEGMGQTISCPAHGCDILVDDNTVM
B3: SHPRH RING domain (UniProt Q149N8); chain KTSGGVNPEPCPICARQLGKQWAVLTCGHCFCNECISIIIEQYSVGSHRSSIKCAICRQTTSHKEISY
B4: UBE4B RING domain (UniProt O95155); chain KNARAEIDYSDAPDEFRDPLMDTLMTDPVRLPSGTIMDRSIILRHLLNSPTDPFNRQTLTESMLEPVPELKEQIQAWMREKQNSDH
B5: TRIM74 RING domain (UniProt Q86UV6); chain SLLELEDWLQCPICLEVFKESLMLQCGHSYCKGCLVSLSYHLDTKVRCPMCWQVVDGSSSLP
B6: CBLL1 RING domain (UniProt Q75N03); chain GEKDDTPVHFCDKCGLPIKIYGRMIPCKHVFCYDCAILHEKKGDKMCPGCSDPVQRIEQCT
B7: RNF17 RING domain (UniProt Q9BXT8); chain SQPWGAAEIQCTRCGRRVSRSSGHHCELQCGHAFCELCLLMTEECTTIICPDCEVATAVNTRQR
B8: RMND5B RING domain (UniProt Q96G75); chain MKCWYHSVFACPILRQQTSDSNPPIKLICGHVISRDALNKLINGGKLKCPYCPMEQNPADGK
B9: RNF11 RING domain (UniProt Q9Y3C5); chain RDGSEKKIRECVICMMDFVYGDPIRFLPCMHIYHLDCIDDWLMRSFTCPSCMEPVDAALLSS
B10: MARCHF2 RING domain (UniProt Q9P0N8); chain RLLSTVIRALDTPSDGPFCRICHEGANGECLLSPCGCTGTLGAVHKSCLEKWLSSSNTSYCELCHTEFAVEKRPRPLTEWL
For `B1 (TRIM32 RING domain)`, “lacZ reporter activity” read 0.
For `B2 (ARIH1 RING domain)`, “lacZ reporter activity” read 0.
`B3 (SHPRH RING domain)` — result for “lacZ reporter activity”: 0.
Under “lacZ reporter activity”, `B4 (UBE4B RING domain)` is recorded as 0.
`B5 (TRIM74 RING domain)` — result for “lacZ reporter activity”: 0.
Under “lacZ reporter activity”, `GSEEEEIPFRCFICRQAFQNPVVTKCRHYFCESCALEHFRATPRCYICDQPTGGIFNPA (RNF113B RING domain (UniProt Q8IZP6))` is recorded as 0.
`B6 (CBLL1 RING domain)`: “lacZ reporter activity” 0.
For `B7 (RNF17 RING domain)`, “lacZ reporter activity” read 0.
Under “lacZ reporter activity”, `B8 (RMND5B RING domain)` is recorded as 0.
For `B9 (RNF11 RING domain)`, “lacZ reporter activity” read 0.
`B10 (MARCHF2 RING domain)` — result for “lacZ reporter activity”: 0.

For quick reference, copied from above (sample 1):
Under “normalised enrichment score”, `S6A` is recorded as 0.308.
For `R5K L9F`, “normalised enrichment score” read -0.0795.
For `L13A`, “normalised enrichment score” read 0.143.
For `R5A L7A`, “normalised enrichment score” read 0.0275.
